Experimental data from different studies.
Numbered parts are unrelated; each lists some results of a single study.

Series 1
Target: Histone acetyltransferase KAT6A, both winged helices, GST fusion (KAT6A, Homo sapiens, UniProt Q92794, residues 1-181)
Method: protein binding microarray
Form: double-stranded DNA, one strand shown
Sample: in vitro
Concentration: not given
Notes: 8-mer, flanks averaged, mean of 2 arrays, mostly near background
Baseline: not given
Reading: higher = stronger binding
Residues (chain): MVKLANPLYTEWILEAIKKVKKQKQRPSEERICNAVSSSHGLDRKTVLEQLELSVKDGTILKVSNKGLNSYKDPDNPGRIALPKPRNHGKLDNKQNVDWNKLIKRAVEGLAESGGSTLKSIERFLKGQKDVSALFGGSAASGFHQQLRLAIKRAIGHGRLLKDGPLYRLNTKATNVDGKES
| Strand | E-score |
| --- | --- |
| ACGCAGTC | -0.0149 |
| CCTCTGTA | -0.114 |
| GACGCGGA | 0.233 |
| CTGGGTAC | -0.0856 |
| GATTAACC | -0.0312 |
| CAAGCCCA | -0.181 |
| CCAAAAGA | -0.21 |
| CCAATACC | 0.029 |
| CTGCGGGC | 0.165 |
| GTCCTGCA | -0.219 |
| ACGTGTCC | 0.0479 |
| GTGGGTCA | -0.128 |
| TCGTTAAA | -0.0311 |
| ACTCGGTC | 0.007 |
| AAGACACG | 0.201 |
| GATGCATC | -0.14 |
| CTGGGCGC | 0.0941 |
| ATCGAAAG | 0.0297 |

Series 2
Target: Ras GTPase-activating protein-binding protein 1, full length (G3BP1, Homo sapiens, UniProt Q13283)
UniProt Q13283, sequence (whole entry, looked up): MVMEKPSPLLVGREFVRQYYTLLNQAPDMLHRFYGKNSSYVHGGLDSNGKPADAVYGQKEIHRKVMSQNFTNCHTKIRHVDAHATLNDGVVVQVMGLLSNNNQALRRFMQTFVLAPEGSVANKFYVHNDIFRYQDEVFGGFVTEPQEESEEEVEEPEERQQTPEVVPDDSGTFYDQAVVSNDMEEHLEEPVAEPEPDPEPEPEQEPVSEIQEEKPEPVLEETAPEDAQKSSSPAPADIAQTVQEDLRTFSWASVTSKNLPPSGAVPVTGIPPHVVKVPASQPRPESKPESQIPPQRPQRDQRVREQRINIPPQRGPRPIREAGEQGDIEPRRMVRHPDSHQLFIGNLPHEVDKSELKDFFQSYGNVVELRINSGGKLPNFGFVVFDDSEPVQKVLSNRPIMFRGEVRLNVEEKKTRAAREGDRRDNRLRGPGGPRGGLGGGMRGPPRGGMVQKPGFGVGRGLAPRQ
Method: RNA Bind-n-Seq
Form: RNA
Sample: in vitro
Concentration: 200 nM
Notes: whole 134-nt RNA, ends assumed
With: 150 mM KCl
Baseline: input library
Reading: higher = stronger binding
All sequences stand within: GGGAGUUCUACAGUCCGACGAUC … UGGAAUUCUCGGGUGUCAAGG
| Strand | log2 enrichment |
| --- | --- |
| UUGGCUCGAGAGAUUGAAUCAAGCCCCCAGUACCGCCUACGGAUCGCCAUGGAGAACGACGAUGGGCGCACUGAAGAGGAGAAGCACAGU | -0.342 |
| AAGUCCUGUGCUACACAUCGUAUGUACCGAAUCGGUUUUUUUGGAGGAAAAAAAGGAAAGUAUUAUGUUACGCCGUUCGGAUCUGCACUU | -0.928 |
| CAAGUCCUGUGCUACACAUCGUAUGUACCGAAUCGGGGUUUGGGGUUUGGGUUUGGAAAGUAUUAUGUUACGCCGUUCGGAUCUGCACUU | -0.187 |
| UGGGAGGUGGAUUUUGUUUAUUUUUUUAGCUCAUUUCCAGGGGUGGGAAUUUUUUUUUAAUAUGUGUGAUGAAUAAAGUUGUUUUUGAAA | 0.422 |
| CUCAAGUCCUGUGCUACACAUCGUAUGUACCGAAUCGGGGCGGCGGGGCGGGGAAAGUAUUAUGUUACGCCGUUCGGAUCUGCACUUCCA | 0.842 |
| CUGUGCUACACAUCGUAUGUACCGAAUCGGGAAAAAAAGGAAAAAAAGGGAAAAAAAGGGGAAAGUAUUAUGUUACGCCGUUCGGAUCUG | -0.901 |
| UAACUUUAGAGGAGGAUCUGAUGGAUAUGGCAGUGGACGUGGAUUUGGGGAUGGCUAUAAUGGGUAUGGAGGAGGACAUGGAGGUGGCAA | 0.408 |
| GCAGGAAGUAAAAACAAAUGGAAAUGCUUCGGAUAGUGGCAGGGGUGGGGGUUGAAAAGGAAAGGGUGGGAUGGGAGUGGGUAAAGAGUU | 1.31 |
| GCAGGAAGUAAAAACAAAUGGAAAUGCUUCGGAUAGUGGCAGGGGUGGGGGUUGCUAAGGAAAGGGUGGGAUGGGGGUGGGUAAAGAGUU | 0.29 |
| UGGCCCUGGUGGCAUGCGGGGAGGAAGAGGUGGCCUCAUGGAUCGUGGUGGUCCCGGUGGAAUGUUCAGAGGUGGCCGUGGUGGACACAG | -0.0902 |
| UGGCCCUGGUGGCAUGCGGGGAGGAAGAGGUGGCCUCAUGGAUCGUGGAGGUCCCGGUGGAAUGUUCAGAGGUGGCCGUGGUGGAGACAG | 0.811 |
| UCCUGUGCUACACAUCGUAUGUACCGAAUCGGGAAAAAAGGAAAAAAGGAAAAAAGGGGAAAGUAUUAUGUUACGCCGUUCGGAUCUGCA | -0.668 |
| UGGGAGGUGGAUUUUGUUUAUUUUUUUAGCUCAUUUACAGGGGUGGGAAUUUUUUUUUAAUAUGUGUCAUGAAUAAAGUUGUUUUUGAAA | 0.0198 |
| GUCCUGUGCUACACAUCGUAUGUACCGAAUCGGCCCCCCGGCCCCCCGGGCCCCCCGGGAAAGUAUUAUGUUACGCCGUUCGGAUCUGCA | -0.25 |

Series 3
Target: Sal-like protein 4, full length isoform B (SALL4, Homo sapiens, UniProt Q9UJQ4-2, residues 1-616)
Method: universal PBM
Form: double-stranded DNA, one strand shown
Sample: in vitro
Concentration: not given
Notes: 8-mer, flanks averaged, mean of replicates
Reading: higher = stronger binding
Construct (chain): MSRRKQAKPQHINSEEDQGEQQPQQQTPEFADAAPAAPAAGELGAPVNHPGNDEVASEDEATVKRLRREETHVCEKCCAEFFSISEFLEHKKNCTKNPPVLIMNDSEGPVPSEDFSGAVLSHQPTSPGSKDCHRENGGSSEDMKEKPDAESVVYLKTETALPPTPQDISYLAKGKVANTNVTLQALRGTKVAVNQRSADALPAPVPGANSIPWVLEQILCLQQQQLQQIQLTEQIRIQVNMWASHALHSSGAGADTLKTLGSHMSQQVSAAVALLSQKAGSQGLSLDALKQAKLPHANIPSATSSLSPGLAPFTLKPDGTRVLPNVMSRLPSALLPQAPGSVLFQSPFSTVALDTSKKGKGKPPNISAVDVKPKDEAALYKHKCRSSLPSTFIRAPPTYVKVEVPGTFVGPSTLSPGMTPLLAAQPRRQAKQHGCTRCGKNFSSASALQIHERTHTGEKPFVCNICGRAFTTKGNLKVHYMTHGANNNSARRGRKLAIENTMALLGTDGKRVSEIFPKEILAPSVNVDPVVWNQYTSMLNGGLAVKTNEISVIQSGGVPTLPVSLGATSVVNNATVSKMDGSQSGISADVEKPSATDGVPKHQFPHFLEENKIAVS
| Strand | E-score |
| --- | --- |
| ATTTTCTC | 0.0986 |
| CTCCCGGA | -0.281 |
| AGTGAAAG | -0.0167 |
| CGGCGTAG | -0.144 |
| AGTTTTCA | 0.23 |
| CCTTCAAG | -0.0532 |
| AACAACAC | 0.128 |
| CCCGGTCA | -0.269 |
| AGCGCTGC | -0.14 |
| GACGGGGA | -0.155 |
| CCCACCCG | -0.121 |
| CCGCGGGC | -0.383 |
| GCCAGGCA | -0.233 |
| GTGGCATA | 0.0566 |
| CATATGCA | 0.183 |
| GTACAAAA | 0.289 |
| CACAGGGC | -0.16 |
| CGAAAGCG | -0.206 |
| ACGTTCTA | 0.0447 |
| GTCCGATA | 0.0209 |
| GCACTAGA | -0.0162 |
| AAGCTGTC | -0.222 |
| CTGCTGGA | -0.0812 |
| CATTCCGG | -0.236 |

Series 4
Target: Prothrombin, mature alpha-thrombin (F2, Homo sapiens, UniProt P00734)
Method: aptamer microarray, sandwich
Form: DNA with 2'F-ANA
Sample: in vitro
Concentration: 200 nM
Notes: whole 15-mer aptamer, many near background
With: Cy3 exosite-II aptamer, 400 nM
Reading: higher = stronger binding
Strand: GGTTGGTGTGGTTGG
| Modification | mean fluorescence intensity |
| --- | --- |
| 2'F-ANA at 4 6 10 11 13 14 15 | 51.5 a.u. |
| 2'F-ANA at 2 3 4 5 6 7 8 10 14 15 | 65.9 a.u. |
| 2'F-ANA at 3 5 9 10 11 13 14 15 | 50.3 a.u. |
| 2'F-ANA at 1 2 3 6 7 10 15 | 64.4 a.u. |
| 2'F-ANA at 1 2 3 6 10 11 12 13 14 | 58.1 a.u. |
| 2'F-ANA at 3 5 7 11 14 15 | 56.6 a.u. |
| 2'F-ANA at 2 4 5 8 10 12 14 | 128 a.u. |
| 2'F-ANA at 1 2 3 5 6 10 13 15 | 46.5 a.u. |
| 2'F-ANA at 6 7 8 9 10 11 12 | 169 a.u. |
| 2'F-ANA at 2 4 5 7 14 | 47.3 a.u. |
| 2'F-ANA at 1 2 3 4 5 9 10 11 13 14 15 | 47.7 a.u. |
| 2'F-ANA at 1 3 5 6 8 10 12 13 15 | 47.8 a.u. |
| 2'F-ANA at 2 3 5 6 8 9 10 11 12 14 15 | 47.9 a.u. |
| 2'F-ANA at 2 5 6 8 10 12 | 54.8 a.u. |
| 2'F-ANA at 2 4 8 10 12 14 | 90.8 a.u. |
| 2'F-ANA at 3 8 11 | 1130 a.u. |
| 2'F-ANA at 2 4 6 8 9 10 11 12 13 | 79.4 a.u. |
| 2'F-ANA at 4 5 9 10 11 12 13 14 | 44.1 a.u. |

Series 5
Target: RNA binding protein fox-1 homolog 2, RRM domain, GST-SBP tag (RBFOX2, Homo sapiens, UniProt O43251-10, residues 100-194)
Method: RNA Bind-n-Seq
Form: RNA
Sample: in vitro
Concentration: 365 nM
Notes: natural RNA segment, single round, ends assumed
Baseline: no-protein control
Reading: higher = stronger binding
All sequences stand within: GGGAGUUCUACAGUCCGACGAUC … UGGAAUUCUCGGGUGCCAA
Target sequence (chain): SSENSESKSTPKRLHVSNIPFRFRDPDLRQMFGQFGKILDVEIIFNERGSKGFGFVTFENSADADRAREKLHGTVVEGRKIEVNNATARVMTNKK
| Strand | RBNS enrichment (R) |
| --- | --- |
| AGACUUGGCUUUAGGACUCUCUGCAUCAGCCUUGUGUGCAUCAGGCACUGGAAAGCCUCUGUCUUCCCAGCCCUUGCCUCUCCAGGAAACUCCACAGGCCUCCAGAGAAU | 0.734 |
| UGGAAAGACAUGCACUUUUUAGUUGACUAAUUCUUCCUCCCAUUCCCCUCUACUUGCGAGUUAUGGAAUUUCUAUUCCAUAACUGAAGUCUUUAUGAUAACCUAAUUUUU | 1.03 |
| UUUCUGAAAGUGAUGGAAAAUGUUGUCUUGUGCAGACAACAUCAUGGCUCUUGGCAGUUUAAAUUUAGUAAUUUUAAUUUAGUGAACAGAAUUGAGAAGAACGUGCCAAA | 0.313 |
| GCCAAAGGUCAAUUUUACAGAAGAUGAGUUUAAAAAUGUUUGGACAUUUCUUGGAGGUGGCUGUGUGGGGAACGGCUUGCUUACAGGUACAGCAGGUACAACCGCCUGAC | 0.785 |
| UGGGUAGUGUGUGACUGUGGCUGUACUGUAUAGUGAACAUAGUUGGCAUAUCUUUGUUUGAAGUUUGUUGGUGAUUCCACCAAACUGGUGUAAAAAACAAAAACAAAAAA | 0.85 |
| GCUCUGGAAGUUUGGCUACCUCUAGGCAUGUGAGAAGGAAGGAAAGCCUAUUGCCUUUUCUCCUUUUACUUCAGCACCCAGCUACUGACUGGUUUCCAUAUCCCCACCCU | 1.8 |
| CAGAGCCCAGGGCAUCCCAUGGGGGUGCUGCAGCCAGGAGGAGAGGAAAGGACAUGGGUAGCAAUUCUACCCAGAGCCUUCUCCUGCCUACAUUCCCUGGCCUGGCUCUC | 0.292 |
| CUCCUGGACCCACUUCCAGUCCCGUUUUGCAUUCCCCUUUGGAUUUUGCUUUGGCUAUUUUUUGUUGUAACCUCUUGAUGUAACAGCACUUUAAAAGGGCGACAACUGAC | 0.573 |
| AAAUGUCUGCAGGGCAUGUCAGAGACCUUUGCAGCAGUGCCUCCCAUCACAGGCCUGGAGGCCUAGGAGGGAAAAAAUGGUUUUGUGGGCCAGGCCCAAGGUCCCCUUGC | 0.474 |
| AAGUGAAAAGUCCAGUGGUAUUGGCAUUGGCAGCAGGUGAGCAAUUUCACCCAGUGUCUUCUGCCUCCCUCUGCGUUGGUAUCUGCUACAUCCCAGGCCACCACCUCCGA | 0.259 |
| AAGCCAUUUUGGUUCAUCCUGAUCACUUGAAUGAUAGACUCAAUGCCCUGUGCCUGGCAGGGAGCGCUUGCAGAGGUGUCCUAGCCUUAGAGGGCUACUUCAGUGUCUCU | 0.273 |
| ACACGUUUUAUUCUACUCAUAGUGAGCUUAUUCUUAUUUUGGAUUGAUUUUCCAAAACCACAGCUUCAGCAGCAACAAUCAGAAUGUCCAAAUGCUGUCCUUUCCCUUAC | 0.311 |
